Experimental data pooled from the literature.
Every numbered part comes from another study and shows a few of its results, in no order. Values joined by “and” are separate records of one study, mostly repeats; a detail may differ.
Sequence of UniProt Q16566 (whole entry, looked up): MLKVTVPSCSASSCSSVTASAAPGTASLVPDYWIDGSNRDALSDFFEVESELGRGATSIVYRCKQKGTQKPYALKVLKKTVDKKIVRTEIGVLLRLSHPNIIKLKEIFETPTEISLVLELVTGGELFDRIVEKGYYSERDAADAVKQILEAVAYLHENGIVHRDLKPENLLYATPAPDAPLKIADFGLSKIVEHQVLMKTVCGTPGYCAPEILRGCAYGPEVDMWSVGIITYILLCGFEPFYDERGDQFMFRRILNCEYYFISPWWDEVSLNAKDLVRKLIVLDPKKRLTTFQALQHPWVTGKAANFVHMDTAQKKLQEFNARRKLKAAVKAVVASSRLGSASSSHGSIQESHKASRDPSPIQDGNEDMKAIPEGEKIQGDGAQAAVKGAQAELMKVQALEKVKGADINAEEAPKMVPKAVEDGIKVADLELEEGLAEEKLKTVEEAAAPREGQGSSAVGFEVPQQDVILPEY
Sequence of UniProt Q6P2M8 (whole entry, looked up): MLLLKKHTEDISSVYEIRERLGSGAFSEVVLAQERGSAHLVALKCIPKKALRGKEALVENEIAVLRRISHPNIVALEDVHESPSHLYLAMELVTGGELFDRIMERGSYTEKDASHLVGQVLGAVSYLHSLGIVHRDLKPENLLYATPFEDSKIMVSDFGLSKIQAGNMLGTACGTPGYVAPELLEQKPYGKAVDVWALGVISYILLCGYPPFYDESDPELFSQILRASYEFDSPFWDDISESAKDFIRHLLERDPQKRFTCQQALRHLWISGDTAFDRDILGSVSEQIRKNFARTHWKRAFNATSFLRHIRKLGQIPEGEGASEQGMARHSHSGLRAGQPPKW
Sequence of UniProt P06493 (whole entry, looked up): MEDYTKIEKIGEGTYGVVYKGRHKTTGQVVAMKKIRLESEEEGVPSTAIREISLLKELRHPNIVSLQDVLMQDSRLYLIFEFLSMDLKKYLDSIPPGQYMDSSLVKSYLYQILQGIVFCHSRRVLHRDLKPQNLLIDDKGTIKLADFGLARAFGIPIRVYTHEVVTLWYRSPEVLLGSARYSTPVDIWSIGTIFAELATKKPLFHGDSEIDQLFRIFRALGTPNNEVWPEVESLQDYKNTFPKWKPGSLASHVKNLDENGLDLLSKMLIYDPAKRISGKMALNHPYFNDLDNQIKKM
Sequence of UniProt O75676 (whole entry, looked up): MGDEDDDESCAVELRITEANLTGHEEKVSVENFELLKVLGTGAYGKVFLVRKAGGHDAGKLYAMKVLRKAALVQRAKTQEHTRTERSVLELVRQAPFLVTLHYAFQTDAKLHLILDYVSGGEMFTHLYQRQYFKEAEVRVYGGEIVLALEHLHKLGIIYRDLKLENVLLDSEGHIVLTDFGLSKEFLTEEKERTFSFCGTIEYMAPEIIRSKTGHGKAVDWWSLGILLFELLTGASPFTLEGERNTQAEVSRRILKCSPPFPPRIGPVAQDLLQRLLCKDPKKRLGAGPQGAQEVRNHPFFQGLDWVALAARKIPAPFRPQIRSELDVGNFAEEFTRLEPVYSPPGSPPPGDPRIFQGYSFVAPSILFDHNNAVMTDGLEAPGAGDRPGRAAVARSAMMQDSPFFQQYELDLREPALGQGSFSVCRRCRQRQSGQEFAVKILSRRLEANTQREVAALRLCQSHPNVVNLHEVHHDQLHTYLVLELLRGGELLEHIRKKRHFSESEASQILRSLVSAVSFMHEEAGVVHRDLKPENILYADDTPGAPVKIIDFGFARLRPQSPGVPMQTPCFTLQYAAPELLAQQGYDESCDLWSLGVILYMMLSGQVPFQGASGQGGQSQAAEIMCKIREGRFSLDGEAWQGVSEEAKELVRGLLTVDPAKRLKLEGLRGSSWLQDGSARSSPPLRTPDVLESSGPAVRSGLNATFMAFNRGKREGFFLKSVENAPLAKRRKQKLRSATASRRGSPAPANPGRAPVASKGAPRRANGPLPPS
Sequence of UniProt P42336 (whole entry, unmodified, looked up): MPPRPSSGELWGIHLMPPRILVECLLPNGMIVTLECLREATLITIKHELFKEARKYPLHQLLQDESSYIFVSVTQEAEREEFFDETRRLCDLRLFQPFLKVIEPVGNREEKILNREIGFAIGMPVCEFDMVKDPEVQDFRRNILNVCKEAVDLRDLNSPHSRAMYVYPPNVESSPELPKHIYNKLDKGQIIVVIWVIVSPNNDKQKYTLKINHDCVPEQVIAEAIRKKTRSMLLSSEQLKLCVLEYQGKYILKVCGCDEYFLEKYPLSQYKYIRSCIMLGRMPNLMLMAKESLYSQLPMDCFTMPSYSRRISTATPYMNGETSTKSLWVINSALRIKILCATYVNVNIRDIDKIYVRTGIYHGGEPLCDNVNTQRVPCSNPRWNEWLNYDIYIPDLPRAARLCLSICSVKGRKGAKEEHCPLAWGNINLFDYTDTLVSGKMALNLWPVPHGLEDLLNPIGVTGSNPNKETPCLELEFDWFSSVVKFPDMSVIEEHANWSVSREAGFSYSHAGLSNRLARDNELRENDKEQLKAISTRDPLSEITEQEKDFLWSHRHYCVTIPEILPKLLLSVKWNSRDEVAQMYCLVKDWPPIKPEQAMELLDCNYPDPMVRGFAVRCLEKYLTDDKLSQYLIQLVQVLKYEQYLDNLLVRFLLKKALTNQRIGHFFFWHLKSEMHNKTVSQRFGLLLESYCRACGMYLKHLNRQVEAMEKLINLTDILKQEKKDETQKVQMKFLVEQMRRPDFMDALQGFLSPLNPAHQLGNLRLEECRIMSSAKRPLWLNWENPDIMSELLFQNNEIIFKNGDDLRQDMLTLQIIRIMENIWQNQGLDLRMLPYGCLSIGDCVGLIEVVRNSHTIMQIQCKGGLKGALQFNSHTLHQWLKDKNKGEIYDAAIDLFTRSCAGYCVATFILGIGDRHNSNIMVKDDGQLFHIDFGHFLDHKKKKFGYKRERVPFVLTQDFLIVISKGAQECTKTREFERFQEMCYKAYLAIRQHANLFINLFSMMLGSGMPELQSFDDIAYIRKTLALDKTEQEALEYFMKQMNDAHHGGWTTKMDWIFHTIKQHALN
Sequence of UniProt P31751 (whole entry, looked up): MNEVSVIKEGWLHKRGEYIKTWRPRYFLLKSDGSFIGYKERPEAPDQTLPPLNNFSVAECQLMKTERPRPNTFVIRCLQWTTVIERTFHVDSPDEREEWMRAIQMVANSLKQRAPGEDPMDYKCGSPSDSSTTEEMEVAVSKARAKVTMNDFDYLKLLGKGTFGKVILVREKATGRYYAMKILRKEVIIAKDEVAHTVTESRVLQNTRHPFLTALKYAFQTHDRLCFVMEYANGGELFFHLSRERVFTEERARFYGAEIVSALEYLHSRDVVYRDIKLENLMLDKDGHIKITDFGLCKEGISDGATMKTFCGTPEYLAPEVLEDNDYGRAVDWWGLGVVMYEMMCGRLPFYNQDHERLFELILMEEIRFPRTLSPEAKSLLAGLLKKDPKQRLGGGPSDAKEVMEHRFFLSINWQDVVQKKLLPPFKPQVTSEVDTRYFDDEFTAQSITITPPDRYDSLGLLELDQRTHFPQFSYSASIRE
Sequence of UniProt P19784 (whole entry, looked up): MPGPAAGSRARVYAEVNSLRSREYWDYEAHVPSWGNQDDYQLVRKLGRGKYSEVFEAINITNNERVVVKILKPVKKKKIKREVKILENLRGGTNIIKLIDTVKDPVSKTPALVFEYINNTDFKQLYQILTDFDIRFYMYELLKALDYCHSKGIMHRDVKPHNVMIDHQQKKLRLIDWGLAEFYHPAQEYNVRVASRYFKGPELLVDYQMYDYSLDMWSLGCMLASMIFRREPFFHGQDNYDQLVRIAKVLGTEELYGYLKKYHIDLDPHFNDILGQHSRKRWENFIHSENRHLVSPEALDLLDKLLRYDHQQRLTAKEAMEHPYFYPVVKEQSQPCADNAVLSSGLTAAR
Sequence of UniProt Q9HAZ1 (whole entry, looked up): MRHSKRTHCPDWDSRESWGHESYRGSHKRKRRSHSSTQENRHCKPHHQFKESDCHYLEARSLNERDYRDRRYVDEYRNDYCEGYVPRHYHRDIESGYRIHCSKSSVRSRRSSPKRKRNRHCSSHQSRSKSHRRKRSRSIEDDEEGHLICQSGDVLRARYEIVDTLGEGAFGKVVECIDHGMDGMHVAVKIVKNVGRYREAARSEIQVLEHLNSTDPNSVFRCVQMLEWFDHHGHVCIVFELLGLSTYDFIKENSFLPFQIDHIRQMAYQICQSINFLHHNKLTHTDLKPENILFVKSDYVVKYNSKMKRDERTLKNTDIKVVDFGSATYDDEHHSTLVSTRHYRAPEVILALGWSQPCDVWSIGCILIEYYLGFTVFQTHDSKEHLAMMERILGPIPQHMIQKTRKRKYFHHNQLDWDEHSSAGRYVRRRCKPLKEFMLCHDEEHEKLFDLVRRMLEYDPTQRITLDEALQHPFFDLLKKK
Sequence of UniProt Q9H1R3 (whole entry, looked up): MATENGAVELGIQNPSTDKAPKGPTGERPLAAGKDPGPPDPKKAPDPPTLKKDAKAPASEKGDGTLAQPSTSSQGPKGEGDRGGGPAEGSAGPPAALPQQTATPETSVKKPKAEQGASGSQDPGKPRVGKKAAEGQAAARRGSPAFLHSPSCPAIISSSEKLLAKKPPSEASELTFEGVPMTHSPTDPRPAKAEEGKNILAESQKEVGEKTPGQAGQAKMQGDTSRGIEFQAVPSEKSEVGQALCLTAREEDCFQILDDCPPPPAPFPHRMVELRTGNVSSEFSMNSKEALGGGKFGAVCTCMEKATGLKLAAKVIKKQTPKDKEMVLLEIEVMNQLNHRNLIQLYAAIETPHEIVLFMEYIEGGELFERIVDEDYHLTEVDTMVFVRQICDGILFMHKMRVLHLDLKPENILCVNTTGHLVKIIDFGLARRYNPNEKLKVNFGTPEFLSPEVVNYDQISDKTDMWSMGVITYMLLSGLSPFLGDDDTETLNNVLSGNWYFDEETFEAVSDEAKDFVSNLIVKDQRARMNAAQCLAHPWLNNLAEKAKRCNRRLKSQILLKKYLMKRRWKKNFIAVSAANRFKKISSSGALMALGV

Study 1
Structure (SMILES): CCC(=O)N[C@H]1CC[C@@H](C(=O)N(C)c2ccc(-c3nc4ccccc4o3)cc2)C1
Read-out: cell-free assay
Method: competition with immobilised ligand
Tested at: 1 µM
For PLK3 (Homo sapiens, UniProt Q9H4B4): remaining binding read 74%.
It gave 78% for remaining binding (PIK3CA (Homo sapiens, UniProt P42336, H1047L)).
MYLK2 (Homo sapiens, UniProt Q9H1R3) — remaining binding: 85%.
CSNK2A2 (Homo sapiens, UniProt P19784) — remaining binding: 100%.
It gave 99% for remaining binding (Ribosomal protein S6 kinase alpha-1, C-terminal kinase domain (RPS6KA1, Homo sapiens, UniProt Q15418)).
The remaining binding was 87% (DYRK2 (Homo sapiens, UniProt Q92630)).
SLK (Homo sapiens, UniProt Q9H2G2) — remaining binding: 92%.

Study 2
Cell line: A-375
Tested at: 100 µM
Time: 18 h
The viability of `CCCCC(=O)O[C@]1(C(=O)CO)[C@@H](C)C[C@H]2[C@@H]3CCC4=CC(=O)C=C[C@]4(C)[C@@]3(F)[C@@H](O)C[C@@]21C` is reported as 8.72%.
`C=CCN1CCCC1CNC(=O)c1cc2[nH]nnc2cc1OC` (stereo not shown) has a viability of 91.3%.
`Cc1ccc(-c2ncc(Cl)cc2-c2ccc(S(C)(=O)=O)cc2)cn1` has a viability of 87%.
The viability of `CN1CCc2nc(C(=O)N[C@@H]3C[C@@H](C(=O)N(C)C)CC[C@@H]3NC(=O)C(=O)Nc3ccc(Cl)cn3)sc2C1` is reported as 104% and 89.7%.
With `Cc1cc2nc3c(=O)[nH]c(=O)nc-3n(C[C@H](O)[C@H](O)[C@H](O)COP(=O)(O)O)c2cc1C` the viability was 139%.

Study 3
Organism: Plasmodium berghei
Action: inhibitor
Cell line: Huh-7
Strain: GFP-expressing sporozoites, liver stage
Tested at: 10 µM
Time: 24 h
Reference: untreated control
With `CN(C(=O)C(Cl)Cl)c1ccc(OC(=O)c2ccco2)cc1` the infection rate was 88.5%.
`CC1(C)S[C@@H]2[C@H](NC(=O)[C@H](N)c3ccc(O)cc3)C(=O)N2[C@H]1C(=O)O` gave an infection rate of 97.6%.
The infection rate of `CO/N=C(\C(=O)N[C@@H]1C(=O)N2C(C(=O)O)=C(COC(N)=O)CS[C@H]12)c1ccco1` is reported as 84.2%.
`CCN(CC)CCOC(=O)C(c1ccccc1)c1ccccc1` gave an infection rate of 90.5%.
`C[C@]12CC[C@@H]3c4ccc(O)cc4CC[C@H]3[C@@H]1CCC2=O` has an infection rate of 111%.
`CCOC(=O)[C@H](CCc1ccccc1)N[C@H]1CCc2ccccc2N(CC(=O)O)C1=O` gave an infection rate of 75%.
With `Oc1c(Cl)cc(Cl)cc1Sc1cc(Cl)cc(Cl)c1O` the infection rate was 34.5%.
`O=C(O)CCC(=O)OC[C@@H](NC(=O)C(Cl)Cl)[C@H](O)c1ccc([N+](=O)[O-])cc1` gave an infection rate of 94.6%.
For `CNCCc1ccccn1`, the infection rate was 91.5%.

Study 4
Compound: O=C(O)/C=C/c1cc(Br)c(Br)c(Br)c1Br
Read-out: enzyme activity
Action: inhibitor
Tested at: 0.5 µM
Reference: control
It gave 88.6% for remaining activity (Cyclin-dependent kinase 1, with cyclin A (CDK1, Homo sapiens, UniProt P06493)).
The remaining activity was 82.1% (MARK2 (Homo sapiens, UniProt Q7KZI7)).
For CDC42BPB (Homo sapiens, UniProt Q9Y5S2): remaining activity read 97.4%.
For NEK3 (Homo sapiens, UniProt P51956): remaining activity read 83.5%.
For PNCK (Homo sapiens, UniProt Q6P2M8): remaining activity read 95.1%.
For CAMK4 (Homo sapiens, UniProt Q16566): remaining activity read 103%.
It gave 80.3% for remaining activity (PRKG2 (Homo sapiens, UniProt Q13237)).
It gave 94.3% for remaining activity (DDR2 (Homo sapiens, UniProt Q16832)).
For RPS6KA4 (Homo sapiens, UniProt O75676): remaining activity read 103%.
AKT2 (Homo sapiens, UniProt P31751) — remaining activity: 97.5%.
The remaining activity was 45.4% (CLK4 (Homo sapiens, UniProt Q9HAZ1)).
It gave 93.1% for remaining activity (MARK4 (Homo sapiens, UniProt Q96L34)).
For CLK3 (Homo sapiens, UniProt P49761): remaining activity read 96.1%.

A few entries again (study 3):
For `CNCCc1ccccn1`, the infection rate was 91.5%.
With `CN(C(=O)C(Cl)Cl)c1ccc(OC(=O)c2ccco2)cc1` the infection rate was 88.5%.
`C[C@]12CC[C@@H]3c4ccc(O)cc4CC[C@H]3[C@@H]1CCC2=O` has an infection rate of 111%.
